Measurements gathered from unrelated publications.
Lines come from different studies, so protocols differ. Values joined by “and” are separate records of one study, mostly repeats; a detail may differ. Numbers after ± are the reported error. Ends that are not written are not given here. * marks the point of attachment.
CDK5 with p25: Cyclin-dependent kinase 5, with p25 (CDK5, Homo sapiens, UniProt Q00535)
Genome polyprotein NS3 helicase domain: Genome polyprotein, NS3 helicase domain (Hepatitis C virus genotype 1b, UniProt Q9WMX2)
HLA class I histocompatibility antigen, B alpha chain: HLA class I histocompatibility antigen, B alpha chain (Homo sapiens, UniProt P01889)
B1: chain MSEILPYGEDKMGRFGADPEGSDLSFSCRLQDTNSFFAGNQAKRPPKLGQIGRAKRVVIEDDRIDDVLKGMGEKPPSGV

Rhodiosin
remaining activity (Cytochrome P450 1A2 (CYP1A2, Homo sapiens, UniProt P05177); LC-MS/MS; human liver microsomes; 10 µM, together with: phenacetin): 25.9 ± 0.64%

KEAFWDRCLSVINLSSSKMLQINA
activity change (CDK5 with p25; phosphotransferase activity, radiometric; peptide; concentration not given, 10% DMSO, together with: histone substrate; relative to: p5-WT peptide): 50%

laminarin
ΔTm (uncharacterized protein (Pelagibacter ubique, UniProt Q4FLC8); thermal stabilisation, differential scanning fluorimetry screen; Candidatus Pelagibacter ubique; hit threshold ΔTm 2 °C): 5.01 °C

KEAFWDRCLSVLNLMSSKMLQINA
activity change (CDK5 with p25; phosphotransferase activity, radiometric; peptide; concentration not given, 10% DMSO, together with: histone substrate; relative to: p5-WT peptide): 25%

B1
ΔH (Calcium/calmodulin-dependent protein kinase type II subunit alpha (CAMK2A, Homo sapiens, UniProt Q9UQM7, D135N); binding, ITC; kinase domain D135N; together with: AMPPNP): -9.75 kcal/mol and -9.7 kcal/mol

KEAFWDRCLSVINLMSSKMLQINL
activity change (CDK5 with p25; phosphotransferase activity, radiometric; peptide; concentration not given, 10% DMSO, together with: histone substrate; relative to: p5-WT peptide): -7%

BzATP
normalized current (P2X purinoceptor 7 (P2rx7, Rattus norvegicus, UniProt Q64663, Q143A/R125A); ion current, agonist, two-electrode voltage clamp; Xenopus laevis oocytes; 100 µM; relative to: highest concentration response): 1

Malic enzyme 2 S121Q (human)
Hill coefficient (enzyme activity, NADH absorbance; with fumarate 3 mM, together with: L-malate varied): 1.02 ± 0.03

For-MMYA (N-formyl; For = O=C*)
Km (Peptide deformylase, mitochondrial (Homo sapiens, UniProt Q9HBH1); substrate, FDH/NAD+-coupled; pH 7.5): 4.08 ± 2.8 mM

KEMFWDRCLSVINLMSSKMLQINA
activity change (CDK5 with p25; phosphotransferase activity, radiometric; peptide; concentration not given, 10% DMSO, together with: histone substrate; relative to: p5-WT peptide): 39%

CIIS
relative spot intensity (Saccharomyces cerevisiae protein farnesyltransferase; peptide prenylation, substrate, SPOT peptide library; peptide; together with: C15-Alk; relative to: random library): 100%

human ME2 G124S mutant
Hill coefficient (enzyme activity, NADH absorbance; with fumarate 3 mM, together with: L-malate varied): 1 ± 0.01

NTVKELKNYIQELEERNAELKNLKEHLKFAKAELEFELAAHKFE
Tm (Cyclic AMP-dependent transcription factor ATF-7 (ATF7, Homo sapiens, UniProt P17544); heterodimer thermal denaturation, CD; peptide, 1 M GuHCl; 4 µM total peptide, pH 7.4): 41 °C

FRKKVILEDKVKNF
binding (HLA-DR, human; DELFIA; peptide; 10 µM, 48 h, 37 °C; relative to: peptide alone): > 2 fold

RHOA (wild-type)
GTP hydrolysis rate constant (RHOA; intrinsic GTPase activity; room temperature, together with: 5 µM GTP): 0.034 ± 0.01 min⁻¹

NASC
enzyme activity (Vmax) (Glyceraldehyde-3-phosphate dehydrogenase (GAPDH, Homo sapiens, UniProt P04406); spectrophotometric; peptide; 10 µM; relative to: vehicle): 106% and 92% and 94% and 94.5%

2-methylthio-ATP tetrasodium
inhibition (Genome polyprotein NS3 helicase domain; NS3 helicase DNA binding, fluorescence, Cy5-dT15; 100 µM): 41%

UUGUAUGUU (ssRNA)
Kd (U2AF2 148-342 (Homo sapiens, UniProt P26368); sequencing of bound RNA; RNA; motif only): 14 µM

maltotriose
ΔTm (uncharacterized protein (Pelagibacter ubique, UniProt Q4FMK2); thermal stabilisation, differential scanning fluorimetry; Candidatus Pelagibacter ubique): 7.48 °C

KEGFWDRCLSVINLMSSKMLQINA
activity change (CDK5 with p25; phosphotransferase activity, radiometric; peptide; concentration not given, 10% DMSO, together with: histone substrate; relative to: p5-WT peptide): 54%

Tannic acid
inhibition (Protein disulfide-isomerase (P4HB, Homo sapiens, UniProt P07237); disulfide reductase activity; 20 µM, 15 min, together with: di-eosin-GSSG): inhibited

KQWLVWLFL
binding affinity fold difference (TCR; SPR; peptide; concentration not given, 25 °C; relative to: peptide over wild-type peptide): ~20 fold

RVKALFSVL
binding (HLA class I histocompatibility antigen, B alpha chain; iTopia initial binding; peptide; 11 µM, 18 h, 21 °C, HLA-B7 allele; relative to: allele positive control peptide): 93%

Ivermectin
agonist score (GABA-A receptor; alpha-1/beta-2/gamma-2 (Rattus norvegicus, UniProt P18508+P62813+P63138); QP-DHM; HEK293 cells; 10 µM; relative to: 10 µM GABA, direction not given): 0.85

Ac-PQLPF-NH2
kcat/KM (Protein-glutamine gamma-glutamyltransferase (TGM2, Homo sapiens, UniProt P21980); deamidation, substrate; peptide): 2000 ± 167 M⁻¹ s⁻¹

PGYNEWREFCGLPRLETPA
binding (HLA-DR, human; DELFIA; peptide; 10 µM, 48 h, 37 °C; relative to: peptide alone): > 2 fold

IFHKNNQLAF
binding (human HLA-A*2401 (HLA-A24); iTopia initial binding; peptide; 11 µM, 18 h, 21 °C; relative to: allele positive control peptide): 104%

KEAFWDRCLMVINLMSSKMLQINA
activity change (CDK5 with p25; phosphotransferase activity, radiometric; peptide; concentration not given, 10% DMSO, together with: histone substrate; relative to: p5-WT peptide): 17%

alkynyl-geranylgeranyl pyrophosphate
Vmax (geranylgeranyltransferase type-I (Rattus norvegicus, UniProt P53610+Q04631); peptide prenylation, substrate, fluorescence anisotropy; together with: FAM-RHOA peptide): 8.4 fmol/min

KEAFWDRCLSVINLMSSKMLDINA
activity change (CDK5 with p25; phosphotransferase activity, radiometric; peptide; concentration not given, 10% DMSO, together with: histone substrate; relative to: p5-WT peptide): 65%

(+)-catechin hydrate
inhibition (Genome polyprotein NS3 helicase domain; NS3 helicase DNA binding, fluorescence, Cy5-dT15; 100 µM): 0%

KEAFWDRCLSVIDLMSSKMLQINA
activity change (CDK5 with p25; phosphotransferase activity, radiometric; peptide; concentration not given, 10% DMSO, together with: histone substrate; relative to: p5-WT peptide): 64%

YRVAAAP
change in Tm (VSR1, PA domain (Arabidopsis thaliana, UniProt P93026); differential scanning fluorimetry; peptide; 5 mM, pH 7.1): no effect

milbemycin oxime
fraction bound (CDR1 (Candida albicans, UniProt Q5ANA3); binding, microscale thermophoresis; 39.1 nM): 24.5%

11-deoxycorticosterone
rate constant k2 (human CYP11B2; substrate, stopped-flow kinetics; 4-state closed model, together with: adrenodoxin 10-fold excess): 1.62 min⁻¹

EKVPESKVIFDANAPVAVRSKVPDSEF
binding (HLA-DR, human; DELFIA; peptide; 10 µM, 48 h, 37 °C; relative to: peptide alone): > 2 fold

GAKGAAGPM
binding (HLA class I histocompatibility antigen, B alpha chain; iTopia initial binding; peptide; 11 µM, 18 h, 21 °C, HLA-B7 allele; relative to: allele positive control peptide): 59%

β-melibiose
association rate constant (Frizzled-8 (Xenopus laevis, UniProt Q91719); binding, biolayer interferometry; 25 °C, together with: immobilized biotinylated carbohydrate): 15800 M⁻¹ s⁻¹
